Results gathered from unrelated publications.
Every numbered part comes from another study and shows a few of its results, in no order. Substitutions count along the parent as printed.

Series 1
Target: CCND1, cyclin fold, Cln2 fusion (human)
Method: yeast growth competition, sequencing
Sample: yeast
Notes: strong parent motif
Baseline: not given
Reading: higher = stronger binding
Starting sequence: RBL1 docking peptide (human); GSAKRRLFGEDPP; partner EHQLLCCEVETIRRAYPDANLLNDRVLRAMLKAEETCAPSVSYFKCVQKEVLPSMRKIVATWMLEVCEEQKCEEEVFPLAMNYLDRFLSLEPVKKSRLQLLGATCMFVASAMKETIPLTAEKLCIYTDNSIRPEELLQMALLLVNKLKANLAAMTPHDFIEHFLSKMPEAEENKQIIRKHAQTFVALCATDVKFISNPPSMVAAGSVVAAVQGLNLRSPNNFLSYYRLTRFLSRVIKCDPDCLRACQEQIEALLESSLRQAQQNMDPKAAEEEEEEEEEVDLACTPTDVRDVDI
Variant	normalised enrichment score
S2T	1.67
D11P	0.952
F8G	-0.0862
S2G	1.96
R5K F8L	0.14
F8V	0.519
R6I	1.59
A3K	0.312
A3E	0.735
G1P	1.87
F8T	0.645
S2Q	1.15
R6H	1.07
P13T	1.62
E10D	2.18
G9T	3.09
F8C	0.39
R6E	1.84
D11G	1.13
A3H	0.301
R6P	0.502
S2M	0.774
R5M	1.44
L7D	0.091
F8A	0.225

Series 2
Target: UBE2J1 UBC core domain (UniProt Q9Y385)
Method: yeast two-hybrid
Sample: yeast
Notes: mostly zero background
Baseline: not given
Reading: higher = stronger interaction
B1: MARCHF2 RING domain (UniProt Q9P0N8); chain RLLSTVIRALDTPSDGPFCRICHEGANGECLLSPCGCTGTLGAVHKSCLEKWLSSSNTSYCELCHTEFAVEKRPRPLTEWL
B2: MDM2 RING domain (UniProt Q00987); chain TQDKEESVESSLPLNAIEPCVICQGRPKNGCIVHGKTGHLMACFTCAKKLKKRNKPCPVCRQPIQMIVLTYFP
B3: RNF10 RING domain (UniProt Q8N5U6); chain VRICSHEVPSCPICLYPPTAAKITRCGHIFCWACILHYLSLSEKTWSKCPICYSSVHKKDLKS
B4: RNF130 RING domain (UniProt Q86XS8); chain DKETDPDFDHCAVCIESYKQNDVVRILPCKHVFHKSCVDPWLSEHCTCPMCKLNILKALGIV
B5: UBE4B RING domain (UniProt O95155); chain KNARAEIDYSDAPDEFRDPLMDTLMTDPVRLPSGTIMDRSIILRHLLNSPTDPFNRQTLTESMLEPVPELKEQIQAWMREKQNSDH
B6: RNF115 RING domain (UniProt Q9Y4L5); chain TQEQVDMGLECPVCKEDYTVEEEVRQLPCNHFFHSSCIVPWLELHDTCPVCRKSLNGEDSTR
B7: RFPL3 RING domain (UniProt O75679); chain MAALFQEASSCPVCSDYLEKPMSLECGCTVCLKCINSLQKEPHGEDLLCCCCSMVSQRNKIRP
B8: TRIM34 RING domain (UniProt Q9BYJ4); chain ILLNVQEEVTCPICLELLTEPLSLDCGHSLCRACITVSNKEAVTSMGGKSSCPVCGISYSFEHLQA
B9: RNF32 RING domain (UniProt Q9H0A6); chain VQALRRETHECSICLAPLSAAGGQRVGAGRRSREMALLSCSHVFHHACLLALEEFSVGDRPPFHACPLCRSCYQKKILEC
B10: TRIM74 RING domain (UniProt Q86UV6); chain SLLELEDWLQCPICLEVFKESLMLQCGHSYCKGCLVSLSYHLDTKVRCPMCWQVVDGSSSLP
Molecule	lacZ reporter activity
B1 (MARCHF2 RING domain)	0
B2 (MDM2 RING domain)	0
B3 (RNF10 RING domain)	0
B4 (RNF130 RING domain)	0
GSEEEEIPFRCFICRQAFQNPVVTKCRHYFCESCALEHFRATPRCYICDQPTGGIFNPA (RNF113B RING domain (UniProt Q8IZP6))	0
EDVLSKDAGECAICLEELQQGDTIARLPCLCIYHKGCIDEWFEVNRSCPEHPSD (ZNRF2 RING domain (UniProt Q8NHG8))	0
B5 (UBE4B RING domain)	0
B6 (RNF115 RING domain)	0
B7 (RFPL3 RING domain)	0
MEEMEEELKCPVCGSFYREPIILPCSHNLCQACARNILVQTPESESPQSHRAAGSGVSDY (TRIM9 RING domain (UniProt Q9C026))	0
VPADASPDSKCPICLDRFDNVSYLDRCLHKFCFRCVQEWSKNKAECPLCKQPFDSIFHSV (TOPORS RING domain (UniProt Q9NS56))	0
B8 (TRIM34 RING domain)	0
B9 (RNF32 RING domain)	0
B10 (TRIM74 RING domain)	0

Series 3
Target: CREB3, bZIP domain (human)
Method: DHFR protein complementation
Sample: yeast
Notes: single substitutions, most at no-binding floor
Baseline: wild-type JUN-FOS pair
Reading: higher = stronger binding
Starting sequence: JUN, bZIP domain (human); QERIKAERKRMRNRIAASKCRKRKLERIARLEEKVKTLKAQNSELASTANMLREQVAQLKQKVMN; partner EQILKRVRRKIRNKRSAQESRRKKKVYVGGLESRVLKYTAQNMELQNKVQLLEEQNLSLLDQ
Variant	binding fitness [natural log]
A49F	-1.47
V56T	-1.55
A49Q	-1.47
V35P	-1.52
L38W	-1.53
L52H	-1.53
L45T	-1.42
A57V	-1.03
K39S	-1.42
N42W	-1.56
A49V	-1.42
Q41K	-1.54

Series 4
Target: RING finger protein unkempt homolog, zinc fingers 1-6, GST-SBP tag (UNK, Homo sapiens, UniProt Q9C0B0, residues 30-357)
Method: RNA Bind-n-Seq
Form: RNA
Sample: in vitro
Tested at: not given
Notes: RNA with constant flanks, human-mouse chimeric sites, ends assumed
Baseline: input RNA pool
Reading: higher = stronger binding
All sequences stand within: GGGAGUUCUACAGUCCGACGAUC … CAACAGAGGAUUGAGCAUCA
Residues (chain): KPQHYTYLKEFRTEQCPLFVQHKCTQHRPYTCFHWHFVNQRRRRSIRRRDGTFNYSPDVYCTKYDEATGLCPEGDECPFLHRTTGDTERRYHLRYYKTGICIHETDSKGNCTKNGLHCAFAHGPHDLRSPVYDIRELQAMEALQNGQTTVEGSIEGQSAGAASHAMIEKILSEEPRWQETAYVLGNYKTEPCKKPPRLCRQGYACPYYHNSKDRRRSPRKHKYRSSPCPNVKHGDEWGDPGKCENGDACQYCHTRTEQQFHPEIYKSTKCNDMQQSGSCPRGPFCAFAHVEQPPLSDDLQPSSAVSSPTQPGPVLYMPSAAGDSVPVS
Strand	bound/input enrichment
UCAACAGACAACAUCAAAUACCAGCCUAAAGGGGGGCAGGUACAAAUUGUUACCAAGAAGAUAGACUUAAGCCAUGUGACAUCCAAAUGUGGCUCUCUGAAGAACAUCCGUCACAGGCCA	0.405 ratio
GAGCCCAGCCGGCAGUUUGUAAAGGACUCCAUUCGGCUGGUUAAAAGAUGCACCAAACCUGAUAGAAAAGAAUUCCAGAAGAUUGCCAUGGCUACAGCUAUAGGAUUUGCUAUCAUGGGA	0.235 ratio
UACUCAACUUUCUUGCCACAUUUUGAAUUCCAAGACAUUAUUCCUCCAGAUGACUUCCUAACGAGUGAUGAAGAAGUAGAUUCCGUUUUAUUUGGAACUAUGAGAGGACAAGUUGUUGGA	0.214 ratio
CGCUGGCCCAAGCUGAUGGACUCUGAUGGCCUCCAUCAAGGUAUUAUGUGUGCCUUCUCUUAGUCCCUGUUUUCGGGAUGUUAUGAAUCUCAGUACUGUGGUUUGAAAGCACCAGCUUUG	0.0923 ratio
UAUAAUAAUCAUGAAAUUCGUUCUGGAAAGCACAUUGGUGUCUGCAUCUCAGUUGCCAACAAUAGGCUUUUUGUGGGCUCGAUUCCUAAGAGUAAAACCAAGGAGCAGAUUCUUGAAGAA	0.983 ratio
GCUCCUCUUCCGCACUCAGCCUGGGGACACUGGGCUGGGACCAGAAUCUUAUUUUUUUUUAAAACUCUCAGUGUAACUGUAUCCCGUGACAUUUCAUUUUUUUUAAAUAGUGUAUUUUUU	12.1 ratio
GGACAUCUGUCAAAUUGUUAUGUUCCUGUGAAACAAGUGAACACUCUUCAUAUACUAAUCUGCUUGUACAUCUGUAUGAUAGAGAAAUGUAAAUAUGAAUAUAUUUACAAUGUGUCACUU	0.137 ratio
UUGCCUGAGAACGAGGAUGAGCUGGAGAGCACCAACAGGCGCUACACCAAGAGGGACUGCAGCACUUUCCUCAGAACUAGUGAGACGGGCAUUGUGGACCAGGUCAUGGUCACUCUCAAC	0.0764 ratio
UUCAAAGGCUGUGUUAUCUGUGUCAUUUCAUAAGUAAAACUGCAUCCGGGAAAUUCUGUUCUUUUGUUUAAUUUUCCCCCAAAUGAAGCCAAAGUGUGUGUUGAAGAACUGAGAAAAAAU	0.159 ratio
UUGUGCAAUGAUGCUUGAGAUGGUUUUUGCAAAAGCAGAAAUCGCUGCAAGGUAAUCCUAAUAGAGAAAAGUGGUAUUUUAAACCUUUGAAAUAAAUGGAUGUAACUGUACCUUGGUACA	1.11 ratio
UUGCUACUGACUCCCUGGGUCAAGUUCCUGUGGGAAUCAUACAGGCAGUGUUUGGACCUUCUUCGAAACAAUUCUAGAGUAGAGCGCCUGUACCAUGAUAUCGCCCAGCAAGCUUUCAAA	0.208 ratio

A few entries again (series 4):
Strand	bound/input enrichment
UUGCUACUGACUCCCUGGGUCAAGUUCCUGUGGGAAUCAUACAGGCAGUGUUUGGACCUUCUUCGAAACAAUUCUAGAGUAGAGCGCCUGUACCAUGAUAUCGCCCAGCAAGCUUUCAAA	0.208 ratio
UACUCAACUUUCUUGCCACAUUUUGAAUUCCAAGACAUUAUUCCUCCAGAUGACUUCCUAACGAGUGAUGAAGAAGUAGAUUCCGUUUUAUUUGGAACUAUGAGAGGACAAGUUGUUGGA	0.214 ratio
UUGCCUGAGAACGAGGAUGAGCUGGAGAGCACCAACAGGCGCUACACCAAGAGGGACUGCAGCACUUUCCUCAGAACUAGUGAGACGGGCAUUGUGGACCAGGUCAUGGUCACUCUCAAC	0.0764 ratio
UCAACAGACAACAUCAAAUACCAGCCUAAAGGGGGGCAGGUACAAAUUGUUACCAAGAAGAUAGACUUAAGCCAUGUGACAUCCAAAUGUGGCUCUCUGAAGAACAUCCGUCACAGGCCA	0.405 ratio
UAUAAUAAUCAUGAAAUUCGUUCUGGAAAGCACAUUGGUGUCUGCAUCUCAGUUGCCAACAAUAGGCUUUUUGUGGGCUCGAUUCCUAAGAGUAAAACCAAGGAGCAGAUUCUUGAAGAA	0.983 ratio
